# Experimental data pooled from the literature.
# ± gives the spread as reported.
SMILES,assay,test system,conditions,how to read,endpoint,value
Cc1ccc(Oc2ccc(-c3ccn4c(CC5CC5)nnc4c3C(F)(F)F)cc2F)c(C)n1,,"male Sprague-Dawley rat, brain","subcutaneous, 10 mg/kg, 4 h, single dose",,concentration,61 ng/g
CC(C)C[C@@H]1NC(=O)[C@H](CCCN)NC(=O)[C@H](C(C)C)NC(=O)[C@@H]2CCCN2C(=O)[C@@H](Cc2ccccc2)NC(=O)[C@H](CC(C)C)NC(=O)[C@H](CCCN)NC(=O)[C@H](C(C)C)NC(=O)[C@@H]2CCCN2C(=O)[C@@H](Cc2ccccc2)NC1=O,RP-HPLC C18,,acetonitrile gradient,,retention time,8.51 min
O[C@@H]1[C@@H](O)[C@H](n2cc(COc3ccc(-c4nncnn4)cc3)nn2)O[C@H](C[18F])[C@H]1O,radio-TLC,"mouse, plasma",30 min,,intact tracer,76%
Clc1nnc(N/N=C/c2ccc(Br)cc2)c2ccccc12,haemolysis,human,"100 mM, 45 min",,haemolysis,11.1%
N#Cc1c(-c2ccc(OCC3CC3)c(Cl)c2)ccn2c(CC(F)(F)F)cnc12,,rat liver microsomes,"5 µM, 15 min",,compound metabolized,28%
Cc1nnc(-c2ccc(OCc3cn([C@@H]4O[C@H](C[18F])[C@@H](O)[C@H](O)[C@H]4O)nn3)cc2)nn1,radio-TLC,"mouse, plasma",30 min,,intact tracer,60%
CCCCCCCC(=O)NCCCC[C@@H]1NC(=O)[C@H](Cc2ccc(O)cc2)NC(=O)[C@H](C(C)C)NC(=O)[C@@H](NC(=O)[C@H](Cc2ccc(O)cc2)NC(=O)[C@@H]2CCCN2C(=O)CCN)CSSC[C@@H](C(=O)NCC(=O)NCC(=O)N[C@@H](CCCNC(=N)N)C(=O)NCC(N)=O)NC(=O)[C@H](CO)NC(=O)[C@H](Cc2c[nH]c3ccccc23)NC(=O)[C@H](CO)NC(=O)CCNC1=O,ELISA,"mouse, plasma","intravenous, 10 min",,remaining in blood,5%
NCCCN1CC(=O)N(CC(c2ccccc2)c2ccccc2)CC(=O)N(CCCN)CC(=O)N(CC(c2ccccc2)c2ccccc2)CC(=O)N(CCCN)CC(=O)N(CC(c2ccccc2)c2ccccc2)CC1=O,RP-HPLC C18,,acetonitrile gradient,,retention time,7.3 min
CC(=O)NC(Cc1c[nH]c2ccccc12)C(=O)NC(CCC(=O)C=[N+]=[N-])C(=O)O (stereo not drawn),,"C57BL/6 CES1-/- mouse EL4 tumour, tumour and intestinal tissue","subcutaneous, 2.6 mg/kg of prodrug, DON prodrug dosed",relative to: intestinal tissue over tumour,concentration ratio,15 fold
O=C(CCc1cn(CCOCCOCCOCC[18F])nn1)Nc1ccc(-c2nnc(-c3ccccn3)nn2)nc1,PET,"BALB/c nude mouse, LS174T xenograft, heart","intravenous, 1 h, added: CC49-TCO 72 h before",,tissue uptake,2.5 ± 0.7 %ID/g
C(=N\Nc1nnc(N/N=C/c2ccccc2)c2ccccc12)/c1ccccc1,haemolysis,human,"100 mM, 45 min",,haemolysis,19 to 35%
NCCC(=O)N1Cc2ccccc2-c2c(nnn2-c2cn(C3OC(CO)C(O)C3O)c(=O)[nH]c2=O)-c2ccccc21 (mixture of isomers),,methanol,,,absorption maximum,276 nm
[18F]CCOCCOCCOCCn1cc(COc2ccc(-c3nncnn3)cc2)nn1,radio-TLC,"mouse, plasma",30 min,,intact tracer,37%
COc1ccc(CNc2ccc(-c3ccn4c(CC5CC5)nnc4c3C(F)(F)F)cc2F)cn1,,"male Sprague Dawley rat, brain and plasma","subcutaneous, 10 mg/kg, 2 h",relative to: brain over plasma,tissue/plasma ratio,0.4
O=[N+]([O-])c1cccc(/C=N/Nc2nnc(N/N=C/c3cccc([N+](=O)[O-])c3)c3ccccc23)c1,haemolysis,human,"100 mM, 45 min",,haemolysis,19 to 35%
CCCCn1ccn2c(-c3ccc4[nH]ccc4c3)c(C)nc2c1=O,,human liver microsomes,"5 µM, 15 min",,metabolized fraction,30%
Nc1nc(-n2nnc3c2CCC2C(CO)C2CC3)nc2c1ncn2C1OC(CO)C(O)C1O (mixture of isomers),,methanol,,,absorption maximum,261 nm
Cc1cc(Oc2ccc(-c3ccn4c(CC5CC5)nnc4c3C(F)(F)F)cc2F)ccn1,,human liver microsomes,"5 µM, 15 min",,compound metabolized,14%
CCCCCC(=O)OCn1cc(F)c(=O)[nH]c1=O,,HCl or phosphate buffer,"80 µg/mL, pH 6.8, 37 °C, chemical stability",,half-life,36.8 ± 3.5 h
CCCCn1ccn2c(-c3ccc(Oc4ccnc(C)c4)c(F)c3)c(C)nc2c1=O,,"Sprague Dawley rat male, brain","oral, 10 mg/kg, 4 h",,brain concentration,244 ng/g
C(=N\Nc1nnc(N/N=C/c2ccco2)c2ccccc12)/c1ccco1,haemolysis,human,"100 mM, 45 min",,haemolysis,19 to 35%

# For quick reference, copied from above:
SMILES,assay,test system,conditions,how to read,endpoint,value
Cc1nnc(-c2ccc(OCc3cn([C@@H]4O[C@H](C[18F])[C@@H](O)[C@H](O)[C@H]4O)nn3)cc2)nn1,radio-TLC,"mouse, plasma",30 min,,intact tracer,60%
CCCCCCCC(=O)NCCCC[C@@H]1NC(=O)[C@H](Cc2ccc(O)cc2)NC(=O)[C@H](C(C)C)NC(=O)[C@@H](NC(=O)[C@H](Cc2ccc(O)cc2)NC(=O)[C@@H]2CCCN2C(=O)CCN)CSSC[C@@H](C(=O)NCC(=O)NCC(=O)N[C@@H](CCCNC(=N)N)C(=O)NCC(N)=O)NC(=O)[C@H](CO)NC(=O)[C@H](Cc2c[nH]c3ccccc23)NC(=O)[C@H](CO)NC(=O)CCNC1=O,ELISA,"mouse, plasma","intravenous, 10 min",,remaining in blood,5%
NCCCN1CC(=O)N(CC(c2ccccc2)c2ccccc2)CC(=O)N(CCCN)CC(=O)N(CC(c2ccccc2)c2ccccc2)CC(=O)N(CCCN)CC(=O)N(CC(c2ccccc2)c2ccccc2)CC1=O,RP-HPLC C18,,acetonitrile gradient,,retention time,7.3 min
